Results gathered from unrelated publications.
Every numbered part comes from another study and shows a few of its results, in no order.

Block 1
Target: PABPC1L2, full length, GST fusion (mouse, UniProt A0ABA7IW68)
Method: RNAcompete
Form: RNA
Medium: in vitro
Concentration: 20 nM
Setting: 7-mer, probes averaged, single round
Baseline: mean of 7-mers
Reading: higher = stronger binding
Residues (chain): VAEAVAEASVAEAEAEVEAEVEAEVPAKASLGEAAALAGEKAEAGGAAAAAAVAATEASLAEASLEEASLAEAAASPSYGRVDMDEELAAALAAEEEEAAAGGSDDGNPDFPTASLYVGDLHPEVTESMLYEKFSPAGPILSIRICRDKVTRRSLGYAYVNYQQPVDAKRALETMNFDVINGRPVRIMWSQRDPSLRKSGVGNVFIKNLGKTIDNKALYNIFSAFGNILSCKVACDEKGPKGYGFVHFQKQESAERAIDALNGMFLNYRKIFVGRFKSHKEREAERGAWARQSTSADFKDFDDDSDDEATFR
Oligonucleotide	7-mer Z-score
UGUCAGU	-0.273
AAAAACG	14.7
GGAGGCC	0.095
CGAUUGA	0.00436
GCCGCUC	-0.409
GGUCGAU	-0.115
GUUGAUG	-0.155
AGUAGCC	-0.262
GCUGUAU	-0.213
UGAGCGA	0.0315
AAUGGCC	0.171
UCGCUUA	-0.36
CUAAACA	1.72
UAGCCUU	-0.425
CACAACA	0.0388
AUAAUUU	-0.0663
CCAUUAC	-0.302
UCCGCAG	-0.296
CUAGGAG	0.0913

Block 2
Target: Fragile X messenger ribonucleoprotein 1, C-terminal low-complexity region (Fmr1, Mus musculus, UniProt P35922)
Method: RNA Bind-n-Seq
Form: RNA
Medium: in vitro
Concentration: 200 nM
Setting: whole 134-nt RNA, ends assumed
Added: 150 mM LiCl
Baseline: input library
Reading: higher = stronger binding
Library: 7-deaza-guanosine replaces G
Constant ends, left off below: GGGAGUUCUACAGUCCGACGAUC … UGGAAUUCUCGGGUGUCAAGG
Oligonucleotide	log2 enrichment
GCAGGAAGUAAAAACAAAUGGAAAUGCUUCGGAUAGUGCCAGGGGUGGGGGUUGCUAAGGAAAGGGUGGGAUGGGAGUGGGUAAAGAGUU	1.62
CUGUGCUACACAUCGUAUGUACCGAAUCGGGGUUUUUUUGGGGAAAAAAAGGGGAAAGGGGAAAGUAUUAUGUUACGCCGUUCGGAUCUG	-1.52
UCAAGUCCUGUGCUACACAUCGUAUGUACCGAAUCGGAAAGGAAAGGGGAAAGGGAAAGUAUUAUGUUACGCCGUUCGGAUCUGCACUUC	-0.934
CUCAAGUCCUGUGCUACACAUCGUAUGUACCGAAUCGGCCGGGCCGGGCCGGGAAAGUAUUAUGUUACGCCGUUCGGAUCUGCACUUCCA	-0.0574
CUGUGCUACACAUCGUAUGUACCGAAUCGGGGUUUUUUUGGUUUUUUUGGGGUUUUUUUGGAAAGUAUUAUGUUACGCCGUUCGGAUCUG	0.571
ACCAUGCAGGUGGGCAUCUUUGGGAAGUGGGGCAAGGGGGGGAUAGGGAGGGGGGUAACACUUUGGGAACAGGUGCUCCCAGGUCGUUUC	1.38
UAACUUUAGAGGAGGAUCUGAUGGAUAUGGCAGUGGACGUGGAUUUGGGGAUGGCUAUAACGGGUAUGGAGGAGGACCUGGAGGUGGCAA	-0.297
CUCAAGUCCUGUGCUACACAUCGUAUGUACCGAAUCGGGGCCGGGCCGGCCGGAAAGUAUUAUGUUACGCCGUUCGGAUCUGCACUUCCA	1.07
UAUCAGGAGGGCAGACUUCAAAAGCUACUAAAAAUGAACGGCCCUGAAGAUCUUCCCAAGUCCUAUGACUAUGACCUUAUCAUCAUUGGA	-2.04
CCUCAAGUCCUGUGCUACACAUCGUAUGUACCGAAUCGGGUGGGGUGGGUGGAAAGUAUUAUGUUACGCCGUUCGGAUCUGCACUUCCAG	-0.57
UCCUGUGCUACACAUCGUAUGUACCGAAUCGGGCCCCCGGGCCCCCGGGGCCCCCGGGGAAAGUAUUAUGUUACGCCGUUCGGAUCUGCA	-2.68

Block 3
Target: RING finger protein unkempt homolog, zinc fingers 1-6, GST-SBP tag (UNK, Homo sapiens, UniProt Q9C0B0, residues 30-357)
Sequence of UniProt Q9C0B0 (30-357, looked up): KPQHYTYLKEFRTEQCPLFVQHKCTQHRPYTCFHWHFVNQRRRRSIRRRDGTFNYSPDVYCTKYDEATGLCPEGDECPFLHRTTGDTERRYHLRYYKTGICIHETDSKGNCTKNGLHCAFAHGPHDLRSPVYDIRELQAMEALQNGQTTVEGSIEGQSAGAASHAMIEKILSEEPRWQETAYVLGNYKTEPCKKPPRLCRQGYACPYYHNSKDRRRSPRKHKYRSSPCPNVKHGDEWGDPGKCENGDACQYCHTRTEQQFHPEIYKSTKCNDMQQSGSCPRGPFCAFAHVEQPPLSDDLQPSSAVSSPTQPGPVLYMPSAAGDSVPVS
Method: RNA Bind-n-Seq
Form: RNA
Medium: in vitro
Concentration: not given
Setting: RNA with constant flanks, human and mouse sites, ends assumed
Baseline: input RNA pool
Reading: higher = stronger binding
Constant ends, left off below: GGGAGUUCUACAGUCCGACGAUC … CAACAGAGGAUUGAGCAUCA
Oligonucleotide	bound/input enrichment [ratio]
CCAAAAAAAGGGCCCCAAAAGUUCUUGGCAGCACCCUUGUGGUUGGUUUGCUUGUAGGAAUGGGAUAUUUUGCAUUUAUGCUUUUCAGAAGGAGACUUGGCAGCAUGAUAUUAGCACUUA	0.588
GAAGAUAUAGAAGACUUAGAUCACUAUGAGAUGAAGGAAGAAGAGCCUAUUAGUGGGAAAAAGUCAGAGGAUGAAGGAAUUGAAAAAGAAAAUUUGGCAAUAUUAGAGAAAAUUAGGAAG	32
UGGCCCCAGCCUUCCUCUGAGGGCCCAAGUCUCACCCAGCCUGGGCUGGACAAAGAGGCAGCUGUAGCAGUGGUGACAGAAGUGGAGUCUGCUGUACAGCAGGAAGUGGCCUCCCCUGGG	0.111
UGUUUGAAAUUGGCAGGAAAAAUGCAGCUUUCAAAUCAUUGGGGGGAGAAAAAGGAUGUCUUUCAGGAUUAUUUUAAUUAAUUUUUUUCAUAAUUGAGACAGAACUGUUUGUUAUGUACC	0.79
UCGGAUGCAGCAAUUGAAGCCAUGAAUGGGCAGUACCUCUGUAACCGUCCUAUCACCGUAUCUUAUGCCUUCAAGAAGGACUCCAAGGGUGAGCGCCAUGGCUCAGCAGCCGAACGACUU	0.113
UCACAGCGAUAGUCCUUAUUGCUAAAGGACUUGGCUUCCCUCGGAGUUUUACUGAUUUAUUUUUUUCUCUUUGCAUUGUGUACAUUAUCAUUGCUACAUCAGUUGUUACAGUGUUGAAAG	0.279
UGUUUUGGCUAUUUACAACACUAGUUCUGCUCUUCCAUAAAAAUCGCAUUUUAUCUGUAUUAGUAGAUCUUCACCAAACUCUUAAGCAAUACAAUAUUCCCUCUAAUGCUUUACACACGU	0.843
AUUCUCAAUGCCACCCAGGCAGAAAGCAAAGUGUUCUACUUAAAAAUGAAAGGAGACUACUUUAGGUAUCUUUCUGAAGUUGCAUCCGGAGAAAAUAAACAAACCACGGUGUCCAACUCC	0.126
UCGUUUGGGUCACCAGGCUUCCCAGUGAAUAACAGCAGCAGCAGUACUGUUCAGAACUUUAGUUUUAAAACAAGCCCUGGACUUGCCACUCCUCCUUCCGGAAGCACUUCAGUAUUUGGA	0.306
AACAAUCUUCAGAAGUAUAUAGAGAUAUAUGUCCAGAAGGUAAAUCCAAGUCGACUUCCUGUGGUUAUUGGAGGAUUGCUGGAUGUUGACUGCUCUGAAGAUGUCAUUAAAAAUUUGAUU	0.179
ACACGAGUGGCCGUGUCCUCACCCAUGAGUCAGCACCAGUCCUACAUACAAUACUUGCAUGCUUAUCCUUACCCACAGAUGUAUGACCCCAGCCACCCUGCAUACCGGGCUGUCUCUCCU	0.292

Block 4
Target: RNA binding protein fox-1 homolog 2, RRM domain, GST-SBP tag (RBFOX2, Homo sapiens, UniProt O43251-10, residues 100-194)
Method: RNA Bind-n-Seq
Form: RNA
Medium: in vitro
Concentration: 365 nM
Setting: natural RNA segment, single round, ends assumed
Baseline: no-protein control
Reading: higher = stronger binding
Constant ends, left off below: GGGAGUUCUACAGUCCGACGAUC … UGGAAUUCUCGGGUGCCAA
Target sequence (chain): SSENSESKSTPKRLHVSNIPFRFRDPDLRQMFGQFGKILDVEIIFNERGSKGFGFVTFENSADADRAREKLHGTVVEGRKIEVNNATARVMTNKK
Oligonucleotide	RBNS enrichment (R)
GUAUGAAUAUUACUCAAAGUUAUGUUAGUCUUUUUUUCCGACUUGGUUCUUGUCAGCUAGGUUUAAAGGUAUUUCACUGAGAACGCAAAUUCUGUCUUUUCUUGAUUUCG	0.354
CCAAAGAUGUCCUUAUUGACAAAGCUGGCCUUUGUCACCUGAUUCCAGUAUUCUCACUGUCUUCUAUUUCUAGUAGGGAGCUGGAGUCAAAUAACUUGUAUAGAUUUUGG	0.337
ACAUAGUAAGCACUCAAUAAAUGGUAGUUACUUUUGUUGAGCUCAGCUGGUAGUUUGACCUCCGUUGGUGCAAUGCCAGAGAUGGGAUUGUCAGCCACCACACUGCCACC	0.23
UGGUUUGUGUUCUUCUUCAUAUUCUAAAACCAUUCCAUUUCCAAGCACUUUCAGUCCAAUAGGUGUAGGAAAUAGCGCUGUUUUUGUUGUGUGUGCAGGGAGGGCAGUUU	0.738
UGUGUACAGUAGAGUUUGUUGACACUCCGGUCAUUUCUGACCUGACUUGACCAUCGGUGGCCAUUUUCCAAGCCAGUCUGGUCAAGACUCAUGGCUGAACCUCUGAGACU	0.248
AACUGAUCUUGUGUCACUUCCAAAGAAUCAUGGGCUUUUUCGAAUAAAAAAAUUUACACUUUUCAGGUUUCGCCCUUUUUCCUGCAUGCCAUCGAAUGGAACGCUCAGGG	30.3
UGUACCUCCUCCCUUUGGUGACCUGAAGUCACUGUGACAGUUCUCCAGGAAGGAGGAGCUUCCUACUUUUGAGUUUCUCUGUGGAAAUAAAACAUGAAUCUUGUUUCCCU	0.262
AUUUGCACCUGAGUUGUACAUUUUUGAAGUGUGCAGGGCAGCCUGGACACAAGCUUAGAUUCUCUAUGUAUAGUUCCCCGUGUUCACUAACAUGCCCUCUCUGGAAAGCA	0.39
CUUUGUGGCUGUUUCUGUUUUUUACUGUAUGUAACUGGUAGCUGAUUGUACUAGGAUUAAAAACAAUAAACUUUCAUGAUAAAGCCGAUGAGAUUCAUGGGCUAUACAGC	0.791
CUCUCGAGUGUGCUGGUGUGCUGUGUAGGCUCCCGGGCCACAGUGGCUGUGGAGAAGCCCAGGCCCUUAGAAGAAUCACUGUAUUUGCCACCUGUACCUCACGGCUGCUA	0.735
CUGAGUGGAAAGGGGUUUUUGUUCUGUUUUUAUUUUACCUACAUGUACUAUUUAGCUUCAGUGUACUAGUCCUGCCACCUGUGUAUUUUUAGGGUGCUAUGGAAAUAAUG	1.63
GCACAACCUUCUGACACGUGCCCUGUCUGAAGGUCGGAGUCACCAAUGUCCCUUCCAUUCAUCUCCCUUCCCCACGUGUGCUGCACAUCCCCAGACCAAAGAGGUUCUCG	0.734

Block 5
Target: Histone acetyltransferase KAT6A, both winged helices, GST fusion (KAT6A, Homo sapiens, UniProt Q92794, residues 1-181)
Method: protein binding microarray
Form: double-stranded DNA, one strand shown
Medium: in vitro
Concentration: not given
Setting: 8-mer, flanks averaged, mean of 2 arrays, mostly near background
Baseline: not given
Reading: higher = stronger binding
Construct (chain): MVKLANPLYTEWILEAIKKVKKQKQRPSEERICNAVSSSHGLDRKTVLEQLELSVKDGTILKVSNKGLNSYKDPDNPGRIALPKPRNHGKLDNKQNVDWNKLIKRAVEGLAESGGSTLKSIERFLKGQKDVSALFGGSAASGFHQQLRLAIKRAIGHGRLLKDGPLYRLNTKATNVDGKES
Oligonucleotide	E-score
AGGGCCTG	-0.275
GATTGCGC	0.326
AGAGACGG	-0.0295
CCTATTCG	-0.0929
CCTGCGCG	0.296
AAATTAGT	-0.0363
CACATTCC	-0.00101
CCAACATC	-0.0153
CATGAAAA	-0.195
ACGCGTGG	0.288
CATATAGC	-0.0199
TTACACAA	0.0396
ACGCCCCT	-0.0821
CTATCCTA	-0.175
CGCTATGA	0.12
ACAGAAAG	-0.184
GAAAACCC	0.0147
GGCTTCTA	-0.0212
ACCGATCC	0.0268
CCCTGCAC	-0.2
CTCAATAA	-0.133
CTGTCTTA	0.0498
GACGCATC	0.151
GTTTACTA	-0.00625
CACCTCGC	0.0406

A few entries again (block 5):
Oligonucleotide	E-score
GATTGCGC	0.326
AGAGACGG	-0.0295
CCTATTCG	-0.0929
CCTGCGCG	0.296
AAATTAGT	-0.0363
CACATTCC	-0.00101
CCAACATC	-0.0153
CATGAAAA	-0.195
ACGCGTGG	0.288
CATATAGC	-0.0199
